# Measured values gathered from unrelated publications.
# Numbers after ± are the reported error.
# DRD3: D(3) dopamine receptor (DRD3, Homo sapiens, UniProt P35462)
# Sequence of UniProt P35462 (whole entry, looked up): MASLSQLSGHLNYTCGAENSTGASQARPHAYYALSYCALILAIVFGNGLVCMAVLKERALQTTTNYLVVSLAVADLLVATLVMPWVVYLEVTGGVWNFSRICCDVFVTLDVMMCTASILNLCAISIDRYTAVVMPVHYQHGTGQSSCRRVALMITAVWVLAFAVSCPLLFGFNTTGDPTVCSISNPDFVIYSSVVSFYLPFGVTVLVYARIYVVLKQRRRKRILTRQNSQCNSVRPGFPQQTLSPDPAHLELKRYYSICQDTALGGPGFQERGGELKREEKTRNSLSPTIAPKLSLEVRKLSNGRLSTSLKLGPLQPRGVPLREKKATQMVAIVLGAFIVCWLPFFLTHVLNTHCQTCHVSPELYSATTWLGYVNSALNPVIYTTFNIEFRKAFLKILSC
# Ugcg: Ceramide glucosyltransferase (Ugcg, Mus musculus, UniProt O88693)
# Sequence of UniProt O88693 (whole entry, looked up): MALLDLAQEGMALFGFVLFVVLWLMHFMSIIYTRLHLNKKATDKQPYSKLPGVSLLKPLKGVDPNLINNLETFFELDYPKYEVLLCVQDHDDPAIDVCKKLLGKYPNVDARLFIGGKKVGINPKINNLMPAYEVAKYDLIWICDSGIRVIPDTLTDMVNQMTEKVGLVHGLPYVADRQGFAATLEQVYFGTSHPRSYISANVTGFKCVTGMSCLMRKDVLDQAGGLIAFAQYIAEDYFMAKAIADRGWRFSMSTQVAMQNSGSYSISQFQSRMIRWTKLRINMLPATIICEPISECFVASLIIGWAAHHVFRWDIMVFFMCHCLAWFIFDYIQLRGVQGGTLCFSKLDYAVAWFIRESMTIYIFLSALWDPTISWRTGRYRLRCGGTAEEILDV
# Sequence of UniProt Q04609 (whole entry, looked up): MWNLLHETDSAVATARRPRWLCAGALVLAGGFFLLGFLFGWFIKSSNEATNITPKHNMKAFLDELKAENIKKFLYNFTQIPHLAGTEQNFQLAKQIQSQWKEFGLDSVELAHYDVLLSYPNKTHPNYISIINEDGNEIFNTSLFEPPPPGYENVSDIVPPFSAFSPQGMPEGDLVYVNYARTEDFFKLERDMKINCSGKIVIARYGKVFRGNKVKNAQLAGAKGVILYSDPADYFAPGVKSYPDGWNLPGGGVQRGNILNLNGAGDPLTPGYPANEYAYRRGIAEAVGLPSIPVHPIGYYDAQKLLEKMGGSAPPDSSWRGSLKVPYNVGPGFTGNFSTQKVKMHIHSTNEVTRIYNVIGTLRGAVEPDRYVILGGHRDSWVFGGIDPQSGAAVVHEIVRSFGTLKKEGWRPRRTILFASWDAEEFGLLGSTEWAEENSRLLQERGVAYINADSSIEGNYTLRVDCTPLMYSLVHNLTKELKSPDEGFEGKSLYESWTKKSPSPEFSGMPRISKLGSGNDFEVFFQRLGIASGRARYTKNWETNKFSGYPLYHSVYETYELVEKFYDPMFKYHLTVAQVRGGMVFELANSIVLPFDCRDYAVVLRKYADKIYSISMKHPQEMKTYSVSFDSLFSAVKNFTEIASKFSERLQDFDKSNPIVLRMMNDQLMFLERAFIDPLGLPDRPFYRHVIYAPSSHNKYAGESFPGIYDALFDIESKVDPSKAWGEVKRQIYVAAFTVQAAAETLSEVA
# Sequence of UniProt P25103 (whole entry, looked up): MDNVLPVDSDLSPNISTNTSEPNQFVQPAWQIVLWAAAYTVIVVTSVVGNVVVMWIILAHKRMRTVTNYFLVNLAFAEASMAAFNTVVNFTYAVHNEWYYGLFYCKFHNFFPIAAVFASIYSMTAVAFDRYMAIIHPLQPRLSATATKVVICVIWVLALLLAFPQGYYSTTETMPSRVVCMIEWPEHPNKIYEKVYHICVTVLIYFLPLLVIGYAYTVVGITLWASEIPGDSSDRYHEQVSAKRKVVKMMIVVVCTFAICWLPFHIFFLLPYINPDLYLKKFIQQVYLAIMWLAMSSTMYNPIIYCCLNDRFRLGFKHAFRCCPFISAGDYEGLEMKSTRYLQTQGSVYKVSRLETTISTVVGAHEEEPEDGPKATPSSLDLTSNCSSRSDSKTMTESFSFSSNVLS
# Sequence of UniProt P04629 (whole entry, looked up): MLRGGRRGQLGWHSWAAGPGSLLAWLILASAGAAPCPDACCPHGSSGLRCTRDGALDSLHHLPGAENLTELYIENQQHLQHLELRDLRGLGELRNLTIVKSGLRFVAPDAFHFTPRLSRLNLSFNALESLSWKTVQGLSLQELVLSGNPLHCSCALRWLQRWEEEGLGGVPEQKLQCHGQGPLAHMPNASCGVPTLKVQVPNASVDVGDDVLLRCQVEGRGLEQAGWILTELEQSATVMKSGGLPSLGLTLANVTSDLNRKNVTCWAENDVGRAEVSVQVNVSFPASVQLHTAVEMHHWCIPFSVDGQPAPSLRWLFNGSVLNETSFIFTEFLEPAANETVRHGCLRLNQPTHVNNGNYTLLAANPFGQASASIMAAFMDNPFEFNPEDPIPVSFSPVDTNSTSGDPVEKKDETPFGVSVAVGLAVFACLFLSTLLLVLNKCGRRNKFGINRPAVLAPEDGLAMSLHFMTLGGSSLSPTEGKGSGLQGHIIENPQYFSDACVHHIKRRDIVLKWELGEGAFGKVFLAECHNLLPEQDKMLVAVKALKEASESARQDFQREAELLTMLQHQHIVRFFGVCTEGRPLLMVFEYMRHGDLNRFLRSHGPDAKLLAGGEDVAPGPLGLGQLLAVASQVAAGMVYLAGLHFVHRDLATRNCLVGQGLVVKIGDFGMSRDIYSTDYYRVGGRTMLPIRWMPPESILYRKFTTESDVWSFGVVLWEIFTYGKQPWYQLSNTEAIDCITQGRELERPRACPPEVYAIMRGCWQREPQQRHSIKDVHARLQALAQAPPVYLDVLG
# Sequence of UniProt Q92847 (whole entry, looked up): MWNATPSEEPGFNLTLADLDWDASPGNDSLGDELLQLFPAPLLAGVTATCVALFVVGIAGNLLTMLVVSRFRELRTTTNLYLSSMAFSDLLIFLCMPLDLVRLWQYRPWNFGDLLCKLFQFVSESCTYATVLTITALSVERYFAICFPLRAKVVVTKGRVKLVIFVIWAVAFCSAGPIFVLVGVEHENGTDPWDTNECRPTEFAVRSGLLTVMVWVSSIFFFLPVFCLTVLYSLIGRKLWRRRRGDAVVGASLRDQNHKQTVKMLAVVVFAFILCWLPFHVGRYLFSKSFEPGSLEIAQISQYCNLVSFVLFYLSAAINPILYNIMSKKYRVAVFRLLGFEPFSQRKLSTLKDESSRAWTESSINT
# Sequence of UniProt P00761 (whole entry, looked up): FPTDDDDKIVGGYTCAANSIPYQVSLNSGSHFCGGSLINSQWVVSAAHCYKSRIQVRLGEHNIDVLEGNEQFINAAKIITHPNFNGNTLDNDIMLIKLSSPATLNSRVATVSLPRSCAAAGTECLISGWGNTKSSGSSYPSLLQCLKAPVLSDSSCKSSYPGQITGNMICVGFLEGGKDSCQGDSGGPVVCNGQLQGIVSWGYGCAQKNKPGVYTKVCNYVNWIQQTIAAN
# Sequence of UniProt P43250 (whole entry, looked up): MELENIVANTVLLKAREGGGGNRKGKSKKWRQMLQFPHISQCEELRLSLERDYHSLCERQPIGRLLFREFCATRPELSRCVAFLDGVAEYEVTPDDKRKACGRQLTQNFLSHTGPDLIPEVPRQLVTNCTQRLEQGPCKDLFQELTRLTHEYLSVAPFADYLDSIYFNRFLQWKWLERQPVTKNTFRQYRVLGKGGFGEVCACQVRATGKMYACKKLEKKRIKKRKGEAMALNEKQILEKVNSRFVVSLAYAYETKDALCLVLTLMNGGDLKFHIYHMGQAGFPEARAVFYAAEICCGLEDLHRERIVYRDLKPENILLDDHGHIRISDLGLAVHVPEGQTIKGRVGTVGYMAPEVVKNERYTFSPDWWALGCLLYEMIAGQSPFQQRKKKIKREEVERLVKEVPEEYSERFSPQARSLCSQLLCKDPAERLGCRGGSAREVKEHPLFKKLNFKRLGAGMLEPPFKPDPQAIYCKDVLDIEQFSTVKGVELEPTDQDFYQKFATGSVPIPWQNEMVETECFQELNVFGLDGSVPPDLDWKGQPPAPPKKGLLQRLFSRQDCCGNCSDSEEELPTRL
# Sequence of UniProt P62258 (whole entry, looked up): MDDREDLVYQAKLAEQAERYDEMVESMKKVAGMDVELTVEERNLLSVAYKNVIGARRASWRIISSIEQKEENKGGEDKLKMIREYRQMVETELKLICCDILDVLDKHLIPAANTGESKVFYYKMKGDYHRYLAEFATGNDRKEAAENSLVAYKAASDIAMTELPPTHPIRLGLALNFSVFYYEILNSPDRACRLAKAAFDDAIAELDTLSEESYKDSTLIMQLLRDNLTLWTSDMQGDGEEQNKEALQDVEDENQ
# Sequence of UniProt P17706 (whole entry, looked up): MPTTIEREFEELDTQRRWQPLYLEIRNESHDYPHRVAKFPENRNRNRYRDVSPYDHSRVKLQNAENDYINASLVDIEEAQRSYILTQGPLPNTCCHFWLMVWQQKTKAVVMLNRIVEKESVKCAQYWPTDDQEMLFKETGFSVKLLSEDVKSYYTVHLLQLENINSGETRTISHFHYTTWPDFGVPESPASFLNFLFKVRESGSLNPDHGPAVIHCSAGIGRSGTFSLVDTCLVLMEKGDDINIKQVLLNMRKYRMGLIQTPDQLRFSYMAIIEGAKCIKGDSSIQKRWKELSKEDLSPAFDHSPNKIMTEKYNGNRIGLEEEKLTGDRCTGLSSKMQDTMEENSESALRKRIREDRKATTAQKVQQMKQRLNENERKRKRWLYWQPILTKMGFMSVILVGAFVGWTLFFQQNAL
SMILES,tested on,test,test system,conditions,endpoint,result
CC(C)(CO)NCc1ccc(-c2cccc(C(F)(F)F)c2)o1,DRD3,"ligand displacement, radioligand",,,Ki,0.472 µM
Cn1c(=O)n(C2CCC(=O)NC2=O)c2ccc(C3CCN(CC(=O)Nc4cccc(CS(=O)(=O)N5CC[C@H](Nc6cccc(-c7sc(C(=O)O)c(OCC(=O)O)c7Cl)c6)CC5(C)C)c4)CC3)cc21 (some centres unmarked),"PTPN2 (Homo sapiens, UniProt P17706)","degrader, HiBiT",B16-F10 cells,24 h,DC50,0.041 ± 0.023 µM
COc1ccc(-c2ccc(COCCCCCN3C[C@H](O)[C@@H](O)[C@H](O)[C@H]3CO)cc2)cc1,Ugcg,"enzyme activity, inhibitor, fluorescence",,,IC50,0.025 µM
COC1(C2=NCCN2)COc2ccccc2O1 (centres unmarked),α2-adrenergic receptor chimera,[3H]compound saturation binding,HEK293 membranes,α2c(NT-TM7)/α2a(CT)-AR chimera,Kd,0.00358 ± 0.0011 µM
O=C(NCCO)c1ccc([C@H]2[C@@H](F)[C@@H](F)C[C@@H](F)[C@H]2F)cc1,,hepatocyte stability,cryopreserved human hepatocytes,1 µM,hepatic clearance,6.2 mL/min/kg
O=C([O-])CN1CCN(CC(=O)O)CCN(CC(=O)[O-])[C@@H](Cc2ccc(NC(=S)NCCCCC(NC(=O)CCCCCCC(=O)NCCCC[C@H](NC(=O)N[C@@H](CCC(=O)O)C(=O)O)C(=O)O)C(=O)O)cc2)C1.[Cu+2] (some centres unmarked),"FOLH1 (Homo sapiens, UniProt Q04609)","enzyme activity, inhibitor, fluorescence",,lysate,Ki,0.00623 µM
CCn1nc(Cl)c2c1-c1cnc(N)c(c1)O[C@H](C)c1cc(F)ccc1-c1nn(C)cc1C2,"NTRK1 (Homo sapiens, UniProt P04629)","enzyme activity, inhibitor, radiometric",,,IC50,0.053 µM
O=C(CC(F)(F)F)Nc1ccc(C2CCCCC2)cc1,,liver microsome stability,human liver microsomes,"1 µM, without NADPH",hepatic clearance,11 mL/min/kg
COc1ccc(C(=O)c2c(C(=O)NCCCN(C)C)oc3ccc(Cl)cc3c2=O)cc1OC,"GHSR (Homo sapiens, UniProt Q92847)","β-arrestin 2 recruitment, NanoBiT",HEK293T,,EC50,0.182 µM
Cc1nn(-c2cccc(N)c2)c(=O)c2cnc(Nc3ccc(N4CCNCC4)cc3)nc12,"GRK6 (Homo sapiens, UniProt P43250)","kinase activity, inhibitor, SelectScreen kinase profiling",,,IC50,> 10 µM
CC(C)=CCC/C(C)=C/CC/C(C)=C/CN1C[C@H](O)[C@@H](O)[C@H](O)[C@H]1CO,Ugcg,"enzyme activity, inhibitor, fluorescence",,,IC50,2.9 µM
CCCNC(=O)C1CCCN(CCOc2ccc(Cl)cc2)C1 (centres unmarked),DRD3,"ligand displacement, radioligand",,,Ki,0.335 µM
CCCCCCOCCCCCN1C[C@H](O)[C@@H](O)[C@H](O)[C@H]1CO,Ugcg,"enzyme activity, inhibitor, fluorescence",,,IC50,1 µM
CC(=O)NCCNc1ncc(C(=O)NC2=NN(c3ccc(Cl)c(Cl)c3)CC2)c(C)n1,"Tyrosine-protein kinase ABL1, myristoyl pocket (ABL1, Homo sapiens, UniProt P00519)",,,,Kd,0.056 µM
Cc1cccc(-c2ccc(COCCCCCN3C[C@H](O)[C@@H](O)[C@H](O)[C@H]3CO)cc2)c1,Ugcg,"enzyme activity, inhibitor, fluorescence",,,IC50,0.1 µM
OB(O)c1ccc(OCc2ccccc2)nc1F,"Trypsin (Sus scrofa, UniProt P00761)","enzyme activity, inhibitor",,,Ki,> 5000 µM
CC(C)=CCC/C(C)=C/CC/C(C)=C/COCCCCCN1C[C@H](O)[C@@H](O)[C@H](O)[C@H]1CO,Ugcg,"enzyme activity, inhibitor, fluorescence",,,IC50,0.5 µM
CC(=O)N[C@@H](CCCNC(=N)N)C(=O)N[C@H](C(=O)N[C@@H](CCCCN)C(=O)N[C@@H](CO)C(=O)N[C@@H](CCCNC(=N)N)C(=O)N[C@H](C(=O)N[C@@H](Cc1c[nH]c2ccccc12)C(=O)N[C@@H](C)C(=O)NCC(=O)N[C@@H](CCC(=O)O)C(=O)N[C@@H](CCCCN)C(=O)N[C@@H](CO)C(=O)N[C@@H](CCCCN)C(=O)N[C@@H](CCCNC(=N)N)C(N)=O)[C@@H](C)OP(=O)(O)O)[C@@H](C)O,"14-3-3 protein epsilon (Homo sapiens, UniProt P62258)",surface plasmon resonance,,298 K,binding free energy,-9.32 ± 0.01 kcal/mol
COc1cccc(-c2ccc(COCCCCCN3C[C@H](O)[C@@H](O)[C@H](O)[C@H]3CO)cc2)c1,Ugcg,"enzyme activity, inhibitor, fluorescence",,,IC50,0.15 µM
CSCC[C@H](NC(=O)[C@H](CC(C)C)NC(=O)CNC(=O)[C@H](Cc1ccccc1)NC(=O)[C@H](Cc1ccccc1)NC(=O)[C@@H](N)CCC(N)=O)C(N)=O,"Substance-P receptor, with miniGs/q (TACR1, Homo sapiens, UniProt P25103)","miniGs/q recruitment, BRET",HEK293,30 min,EC50,0.0501 µM
